Measured values gathered from unrelated publications.
A part holds a random share of what one study measured.

Study 1 — method: protein binding microarray; molecule type: double-stranded DNA, one strand shown; matrix: in vitro; concentration: not given; relative to: not given; reading: higher = stronger binding; measurement: E-score
Target: Histone acetyltransferase KAT6A, winged helix 2, GST fusion (KAT6A, Homo sapiens, UniProt Q92794, residues 85-181)
Setting: 8-mer, flanks averaged, mean of 2 arrays, mostly near background
Construct (chain): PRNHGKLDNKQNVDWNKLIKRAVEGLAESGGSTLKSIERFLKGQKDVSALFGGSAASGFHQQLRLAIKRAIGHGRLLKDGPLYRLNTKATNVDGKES
Sequence = GGTATACA; value = 0.0134
Sequence = ATTGTGTA; value = 0.00777
Sequence = CCGATTGC; value = 0.0492
Sequence = AAGGTACT; value = -0.0678
Sequence = AACCAAAT; value = -0.00799
Sequence = CTGCTTAC; value = -0.0549
Sequence = GGGTACCA; value = -0.00843
Sequence = CATAGTGA; value = -0.162
Sequence = AGAGCCTG; value = 0.0582
Sequence = ATAGGAGA; value = -0.142
Sequence = ACGGTTGG; value = -0.103
Sequence = AGGAGACT; value = -0.107
Sequence = CATAGGGG; value = -0.17
Sequence = ACATGCGG; value = -0.118
Sequence = CCAATCAC; value = -0.084
Sequence = GATACTTA; value = -0.0102
Sequence = CCCGATAC; value = 0.147
Sequence = ACCGATCC; value = -0.0492
Sequence = AGCCACAC; value = 0.0357
Sequence = AATACTGT; value = 0.11
Sequence = TCTAACAA; value = -0.0162
Sequence = CATGTCTC; value = -0.127
Sequence = CAAGTTAC; value = -0.0172

Study 2 — method: protein-binding microarray; molecule type: double-stranded DNA, one strand shown; matrix: in vitro; concentration: not given; reading: higher = stronger binding; measurement: E-score
Target: Hepatocyte nuclear factor 3-beta, forkhead domain (FOXA2, Homo sapiens, UniProt Q9Y261, residues 142-269)
Setting: k-mer, scored over probes, only values ≥0.25
Residues (chain): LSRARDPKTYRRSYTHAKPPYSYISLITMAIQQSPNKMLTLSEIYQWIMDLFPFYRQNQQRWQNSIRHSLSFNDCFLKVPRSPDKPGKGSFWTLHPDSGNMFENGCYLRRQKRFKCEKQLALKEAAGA
Sequence = ATATGGGC; value = 0.28
Sequence = AATATCAT; value = 0.279
Sequence = AGATAATG; value = 0.284
Sequence = GTAGACAA; value = 0.3
Sequence = ATTTGTTG; value = 0.254
Sequence = AGTAATAA; value = 0.282
Sequence = ATTAACAA; value = 0.305
Sequence = CAAACAAC; value = 0.324
Sequence = CCTGATAC; value = 0.291

Study 3 — method: RNA Bind-n-Seq; molecule type: RNA; matrix: in vitro; concentration: 200 nM; setting: whole 134-nt RNA, ends assumed; with: 150 mM LiCl; relative to: input library; reading: higher = stronger binding; measurement: log2 enrichment; all molecules: 7-deaza-guanosine replaces G
Target: Fragile X messenger ribonucleoprotein 1, C-terminal low-complexity region (Fmr1, Mus musculus, UniProt P35922)
Constant ends, left off below: GGGAGUUCUACAGUCCGACGAUC … UGGAAUUCUCGGGUGUCAAGG
Sequence = GUCCUGUGCUACACAUCGUAUGUACCGAAUCGGGAAAGGGUUUUUUUGGGAAAAAGGGAAAGUAUUAUGUUACGCCGUUCGGAUCUGCAC; value = -1.08
Sequence = CUCAAGUCCUGUGCUACACAUCGUAUGUACCGAAUCGGGGAGGGAGGGGAGGGGAAAGUAUUAUGUUACGCCGUUCGGAUCUGCACUUCC; value = -0.401
Sequence = UCCUGUGCUACACAUCGUAUGUACCGAAUCGGGGCCCCCGGGCCCCCGGGCCCCCGGGGAAAGUAUUAUGUUACGCCGUUCGGAUCUGCA; value = -2.52
Sequence = GUCCUGUGCUACACAUCGUAUGUACCGAAUCGGGGUUUUUGGGGAGGGGUUUUUGGGGAAAGUAUUAUGUUACGCCGUUCGGAUCUGCAC; value = -0.0852
Sequence = GCAAAAAGUAAAAACAAAUGGAAAUGCUUCGGAUAGUGGCAGGGGUGGGGGUUGCUAAGGAAAGGGUGGGAUGGGAGUGGGUAAAGAGUU; value = 1.3
Sequence = AAGUCCUGUGCUACACAUCGUAUGUACCGAAUCGGGAAAGGGAAAGGGUUUUUGGGAAAGUAUUAUGUUACGCCGUUCGGAUCUGCACUU; value = -1.84
Sequence = UUCUCUCAUUUCUUCUGAAAUACAGGGCAAAUUGGAUCAAGGCAGUUCAGAUGUGUAGCAAACCCAGAGAAUUUGCAUUGGCUUUAGCCA; value = -1.59
Sequence = AAGUCCUGUGCUACACAUCGUAUGUACCGAAUCGGGCCCCGGGCCCCGGGGCCCCGGAAAGUAUUAUGUUACGCCGUUCGGAUCUGCACU; value = 0.455

Study 4 — method: RNA Bind-n-Seq; molecule type: RNA; matrix: in vitro; concentration: 365 nM; relative to: no-protein control; reading: higher = stronger binding; measurement: RBNS enrichment (R)
Target: RNA binding protein fox-1 homolog 2, RRM domain, GST-SBP tag (RBFOX2, Homo sapiens, UniProt O43251-10, residues 100-194)
Setting: natural RNA segment, single round, ends assumed
Constant ends, left off below: GGGAGUUCUACAGUCCGACGAUC … UGGAAUUCUCGGGUGCCAA
Residues (chain): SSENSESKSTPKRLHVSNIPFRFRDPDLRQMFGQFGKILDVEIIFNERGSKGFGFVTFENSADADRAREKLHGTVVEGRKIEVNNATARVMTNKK
Sequence = AGUGUGCUGUUCUCAGCCUAAGAUGCAGCAGCAGCUCUUCCCACACACGCCCCCAGGUCUCCAGGGUAGAAAUCUUUCCAACAGUAGGAACCUAGAGUUAGUCAGGAGUA; value = 0.361
Sequence = AAAAAUAUAACUCAGAUUUCACUGUUAGGAAUAGUUCUGUUUGUGAGCAACUUACUUCCUUUCAUCUUACACAAUGAACCUUGUAAUUUAAUUAUGAUUUUCUCUUCAUA; value = 0.735
Sequence = UGAUGAUACCUCACAUGUUGACCGGCUAUGUGAACUGCCUAUUUCCUAUGCUGGAGUUUUGAUUUUUAACUAAACGCAAAUCUGUAGAUUCUCUCCUCUCCCAUCCCAGA; value = 0.716
Sequence = UAAGAAAUAAGAAUUCCCAGGGUUACUCACCCAUGCGUAAGCUACCCAAGUUUAAUUUGGUAGCUGAAAUAUCUUUUUGCCUCAGACAGCUCUUGAAUUGCUCAUACAGA; value = 0.333
Sequence = UCCUGCUGCUGUCCCUCUCCUGGUCUCUCACACUGCAUGGCCUCCUAUCACUGUGAAUUGUGGCCUGGUCGCAGUUUGUAGUUUCAUUAAAUGGCCCUUUCACUCCCCUG; value = 1.18
Sequence = GAAACAAGAAGAAACAUUGUGAUUGCGAAGUGUCAUUUUGUUUUUUUUUUAAAUAACAUGUAUUAUGGUACAAUCAAAUUGUUCACAUUACCAAAGCAAUAUUUCUUUGG; value = 0.422
Sequence = GCGAUCCGUACUCAGAACGUCCAGGAGAGACGCAUGGCCCGAAGUCAAAGUGCUGGAAUUUUCCAAAACAGCCUGUUCUCUCCUCUCUCCUCCCCAGAGCACCCCCUGCC; value = 2.3
Sequence = CCCACCCAAUACCAUUUCUUACCCUCUAAUCCUACCUGAUCUUUAACAAAGCAUUAAUAAUUCUAAGGAUAAUCUCUAUUUUGUUGUGCUUUUUUGUAACUGUUUUAAAU; value = 0.75
Sequence = GGGACCUUUUGUACUUUAUUUGAACUAUGAGUCUUUAAUUUUUCCUGAUGAUGGUGGCUGUAAUAUGUUGAGUUCAGUUUACUAAAGGUUUUACUAUUAUGGUUUGAAGU; value = 1.04
Sequence = AGAACUUCAGGGUUAUUCCAAGUACUUGUGUGACUUGGAAAAGUAGACUUGGGUUGUGGGAACAGUUGAUAAAGUUCUGGAAAGAUGCCAUUCAUUCUACAGUCUUCCCA; value = 0.326
Sequence = UGUGUAAGUAUACUCUGUGAUGUUCAUACAGUGAUGAAAUCACCCAAAGACACAUUUCUCAGAACGUAGCCCCAUCAUGAAGUGACGUGACUACCAGAGAUUUCUGGAAA; value = 0.445
Sequence = AAGUCAAGUAUUGGAAAGUAUAAAAGAAAAAUCAUUCUGACAAUUUCUAAGCCAGAAGCAAACAAGAAUUACUGAAAUCUACCCCAUGAAUACUUGGAAGGCAGUAAUUG; value = 0.311

Study 5 — method: protein-binding microarray; molecule type: double-stranded DNA, one strand shown; matrix: in vitro; concentration: 250 nM; setting: 60-bp whole probe; with: salmon DNA 0.4 mg/ml; relative to: random background probes; reading: higher = stronger binding; measurement: log fluorescence; constant ends, left off below: GCCTAGCAC … GTCTTGATTCGCTTGACGCTGCTG
Target: Interferon regulatory factor 5, full length, phosphomimetic (IRF5, Homo sapiens, UniProt Q13568-2, residues 1-514, K96S/S451D/S453D/S456D/S462D)
Sequence = TGTTTTTGCTTTCTTTATGCGTGCTAG; value = 3 z-score
Sequence = GACGCTTCCCTTTTCCTGACGTGCTAG; value = 0.186 z-score
Sequence = GACGATATCGGGACTGGAGATGTGCTA; value = 0.754 z-score
Sequence = GAAGGTCTCGGTCTCGGGACGTGCTAG; value = 0.232 z-score
Sequence = TCACAGCTATTTTTAGGACTGTGCTAG; value = 0.0022 z-score
Sequence = GACGGATTGGGTCTCGGGACGTGCTAG; value = -0.187 z-score
Sequence = TTAGAACTGGGGATTGGATTAGTGCTA; value = 0.104 z-score
Sequence = CTCTACCTCGTCATAGTAACGTGCTAG; value = -0.00974 z-score
Sequence = TTAGGACTGGGACTGGGTCAGTGCTAG; value = -0.44 z-score
Sequence = TTAGGACAGGACACTGGGTTAGTGCTA; value = -0.303 z-score
Sequence = TTAGGACTGGGGACTCGGTTAGTGCTA; value = -0.372 z-score
Sequence = TTAGGACTGGGGTATCGGTCAGTGCTA; value = 1.6 z-score
Sequence = TTAGGTTTCGACCCTGGGTTAGTGCTA; value = 4.92 z-score
Sequence = TCAACTTCTGTTTTTGCACTGTGCTAG; value = 0.991 z-score
Sequence = GACGGTTTCCTATTCCTGACGTGCTAG; value = 0.826 z-score
Sequence = TTAGATTTCAGTTTCGATTAGTGCTAG; value = 10.3 z-score
Sequence = GACGATCTCAGACTGGAGCCGTGCTAG; value = -0.297 z-score
Sequence = GACGGTTTCGGTTTCGGAACGTGCTAG; value = 11 z-score
Sequence = GACGGTATCGGGTTTGGGGACGTGCTA; value = 1.92 z-score

Excerpt of the above (study 1):
Sequence = ATAGGAGA; value = -0.142
Sequence = ACCGATCC; value = -0.0492
Sequence = CATGTCTC; value = -0.127
Sequence = GATACTTA; value = -0.0102
Sequence = CCAATCAC; value = -0.084
Sequence = AGAGCCTG; value = 0.0582
Sequence = GGTATACA; value = 0.0134
Sequence = GGGTACCA; value = -0.00843
